Measured values pooled from the literature.
Compare with care: the assays were run in different laboratories. “And” joins repeats or separate records; there may be more than shown.
Cell line: HeLa

CC[C@H](C)[C@H](NC(=O)[C@H](C)NC(=O)[C@H](CCCCN)NC(=O)[C@H](CCCCN)NC(=O)[C@@H](N)CCCNC(=N)N)C(=O)N[C@@H](CCCCN)C(=O)N[C@@H](CC(C)C)C(=O)N[C@H](C(=O)N[C@@H](CCCCN)C(=O)N[C@@H](CCCCN)C(=O)N[C@@H](CC(C)C)C(=O)N[C@H](C(=O)N[C@@H](CCCCN)C(=O)N[C@@H](CCCCN)C(=O)N[C@@H](CC(C)C)C(=O)N[C@@H](CCCCN)C(=O)N[C@@H](CCCCN)C(=O)N[C@@H](C)C(=O)N[C@@H](CC(C)C)C(=O)N[C@@H](CCCCN)C(=O)O)C(C)C)C(C)C  cell growth (MTT; 64 mg/L; relative to: untreated): 70.4% and 71.6% and 69.6%
CCCCCCCCCCCC1CC(=O)N[C@H]([C@H](C)O)C(=O)N[C@@H](CN)C(=O)N[C@@H](CO)C(=O)N[C@@H](Cc2ccc(O)cc2)C(=O)O1 (some centres unmarked)  survival (MTT; 3.2 mg): 107%
CC1CCC(C(C)(C)C(=O)Nc2ccc(Oc3ccccc3)cc2)CC1 (centres unmarked)  IC50 (cell growth or viability; 72 h): 21.1 µM
Nc1c2c(nc3sc4c(c13)CCCCC4)CCCC2  IC50 (cell growth or viability, ATP luminescence; 72 h): > 10 µM
Cc1n[nH]c(C)c1CCCOc1cc(OCCCCCCNCCOCCOCCn2cc(CNc3ccc(C(=O)O)cc3)nn2)cc(C(=O)O)c1  viability (cell growth or viability, MTT; 100 µM, 72 h): 98%
CC[C@H](C)[C@H](NC(=O)[C@H](C)NC(=O)[C@H](CCCCN)NC(=O)[C@H](CC(C)C)NC(=O)[C@@H](N)Cc1ccccc1)C(=O)N[C@@H](CCCCN)C(=O)N[C@@H](CCCCN)C(=O)N[C@@H](Cc1ccccc1)C(=O)NCC(=O)N[C@@H](CCCCN)C(=O)N[C@@H](CCC(=O)O)C(=O)N[C@@H](Cc1ccccc1)C(=O)N[C@@H](CCCCN)C(=O)N[C@@H](CCCCN)C(=O)N[C@H](C(=O)NCC(=O)N[C@@H](C)C(=O)N[C@@H](CCCCN)C(=O)N[C@@H](CC(C)C)C(=O)N[C@@H](CCCCN)C(=O)O)[C@@H](C)CC  cell growth (MTT; 32 mg/L; relative to: untreated): 90.9% and 95.9% and 97.9%
CCCCCCCCCCCCCC(=O)N[C@H]1C(=O)N[C@@H](CN)C(=O)N[C@@H](CO)C(=O)N[C@@H](Cc2ccc(O)cc2)C(=O)O[C@H]1C  survival (MTT; 3.2 mg): 113%
CCCCCCCCCCCC(=O)N[C@H](CO)C[C@@H](O)c1ccccc1  living cells (cell count; 1 µM, 24 h): 92% and 93% and 86%

Excerpt of the above:
Nc1c2c(nc3sc4c(c13)CCCCC4)CCCC2  IC50 (cell growth or viability, ATP luminescence; 72 h): > 10 µM
